Measurements of several laboratories.
Every numbered part comes from another study and shows a few of its results, in no order. “And” joins repeats or separate records; there may be more than shown.

Sample 1
Target: Leukocyte tyrosine kinase receptor (LTK, Homo sapiens, UniProt P29376)
Chain of UniProt P29376 (whole entry, looked up): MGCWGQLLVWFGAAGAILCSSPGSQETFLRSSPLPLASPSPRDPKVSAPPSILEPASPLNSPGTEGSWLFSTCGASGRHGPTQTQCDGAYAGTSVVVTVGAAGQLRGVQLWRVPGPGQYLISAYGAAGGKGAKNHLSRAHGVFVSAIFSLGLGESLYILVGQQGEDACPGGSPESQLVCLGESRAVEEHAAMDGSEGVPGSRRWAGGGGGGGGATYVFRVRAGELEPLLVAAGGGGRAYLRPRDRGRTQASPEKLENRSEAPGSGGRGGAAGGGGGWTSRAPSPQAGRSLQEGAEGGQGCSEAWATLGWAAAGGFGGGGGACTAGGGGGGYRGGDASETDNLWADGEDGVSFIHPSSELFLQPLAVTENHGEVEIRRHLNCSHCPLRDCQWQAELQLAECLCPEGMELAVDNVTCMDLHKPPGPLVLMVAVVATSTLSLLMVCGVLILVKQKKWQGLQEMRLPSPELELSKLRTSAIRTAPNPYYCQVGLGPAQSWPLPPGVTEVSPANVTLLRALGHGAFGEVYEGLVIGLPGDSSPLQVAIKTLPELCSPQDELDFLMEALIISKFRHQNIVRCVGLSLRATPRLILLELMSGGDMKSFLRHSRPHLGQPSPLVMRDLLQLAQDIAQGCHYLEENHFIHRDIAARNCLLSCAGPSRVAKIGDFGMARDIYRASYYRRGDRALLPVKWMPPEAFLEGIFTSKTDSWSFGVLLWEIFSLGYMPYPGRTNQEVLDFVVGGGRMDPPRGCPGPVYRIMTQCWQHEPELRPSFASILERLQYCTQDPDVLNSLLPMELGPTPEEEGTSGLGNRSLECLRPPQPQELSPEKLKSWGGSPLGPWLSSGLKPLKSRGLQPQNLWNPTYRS
Read-out: enzyme activity
Action: inhibitor
Method: radiometric
Concentration: 0.5 µM
With `COc1ccc(Cl)cc1NC(=O)Nc1cc(C)nc2ccccc12` the remaining activity was 87.3%.
`CC(C)[C@H](CO)Nc1nc(Nc2cccc(Cl)c2)c2ncn(C(C)C)c2n1` has a remaining activity of 100%.
The remaining activity of `O=C1NC(=O)/C(=C/c2ccc3nccnc3c2)S1` is reported as 94.7%.
`COc1ccc(-c2cnc3c(-c4ccsc4)cnn3c2)cc1` has a remaining activity of 98.9%.
The remaining activity of `CCC(=O)Nc1ccc2ncnc(Nc3cccc(Br)c3)c2c1` is reported as 81%.
With `Cc1ccc(NC(=O)c2ccc(CN3CCN(C)CC3)cc2)cc1Nc1nccc(-c2cccnc2)n1` the remaining activity was 100%.
`CCOc1cc2ncnc(Nc3cccc(Br)c3)c2cc1OCC` gave a remaining activity of 69.7%.

Sample 2
Cell line: mouse MPNST tumor cells
Method: high-content immunofluorescence imaging
Item: nuclear SOX9
Concentration: 10 µM
Time: 12 h
Notes: mean of 2 replicates
Relative to: DMSO control
Reading: higher = more nuclear SOX9
`c1ccc2c(c1)Nc1ccccc1S2`: “nuclear SOX9 intensity” 117 % of DMSO.
`CN1C(=O)CCS(=O)(=O)C1c1ccc(Cl)cc1` (stereo not shown) — result for “nuclear SOX9 intensity”: 102 % of DMSO and 97.5 % of DMSO and 101 % of DMSO.
For `CC(C)C[C@H]1C(=O)N2CCC[C@H]2[C@]2(O)O[C@](NC(=O)[C@@H]3C=C4c5cccc6[nH]c(Br)c(c56)C[C@H]4N(C)C3)(C(C)C)C(=O)N12`, “nuclear SOX9 intensity” read 119 % of DMSO and 121 % of DMSO.
`COC(=O)CN1CN(c2ccccc2)C2(CCN(Cc3ccc4ccccc4c3)CC2)C1=O`: “nuclear SOX9 intensity” 134 % of DMSO.

Sample 3
Cell line: L929
Read-out: necroptosis protection
Method: CCK-8
Concentration: 0.625 µM
With: TNF-α plus zVAD
`CC(C)S(=O)(=O)c1ccc2nccc(Nc3ccc4scnc4c3)c2c1` has a viability of 22.7%.
`CC(C)S(=O)(=O)c1ccc2nccc(Nc3ccc4sc(C5CCCC5)nc4c3)c2c1` gave a viability of 39.5%.
`CC[C@H](C)c1nc2cc(Nc3ccnc4ccc(S(=O)(=O)C(C)C)cc34)ccc2s1` has a viability of 33.5%.
`CC(C)S(=O)(=O)c1cc2c(Nc3ccc4sc(C5CCCC5)nc4c3)ccnc2cc1OCCO` gave a viability of 95.4%.

Further values, each from its own experiment
Read-out: cell-free assay
Method: competition with immobilised ligand
CDPK1: Calcium-dependent protein kinase 1 (CDPK1, Plasmodium falciparum, UniProt P62344)
Chain of UniProt P62344 (whole entry, looked up): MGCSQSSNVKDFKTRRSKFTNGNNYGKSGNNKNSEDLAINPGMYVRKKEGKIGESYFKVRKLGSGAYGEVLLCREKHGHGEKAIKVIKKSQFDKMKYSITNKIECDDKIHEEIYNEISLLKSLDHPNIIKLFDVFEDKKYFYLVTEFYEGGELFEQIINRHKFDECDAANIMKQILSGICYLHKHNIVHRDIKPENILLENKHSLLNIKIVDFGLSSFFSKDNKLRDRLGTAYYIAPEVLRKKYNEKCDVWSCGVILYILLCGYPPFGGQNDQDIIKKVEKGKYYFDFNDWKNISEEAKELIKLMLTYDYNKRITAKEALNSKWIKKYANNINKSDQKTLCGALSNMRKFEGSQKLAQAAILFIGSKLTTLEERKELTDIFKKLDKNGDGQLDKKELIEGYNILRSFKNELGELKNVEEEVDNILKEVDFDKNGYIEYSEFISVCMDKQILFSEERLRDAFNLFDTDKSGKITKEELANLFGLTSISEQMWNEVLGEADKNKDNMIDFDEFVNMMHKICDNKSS
CRK2: Cyclin-dependent kinase 2 homolog (CRK2, Plasmodium falciparum, UniProt P61075)
Chain of UniProt P61075 (whole entry, looked up): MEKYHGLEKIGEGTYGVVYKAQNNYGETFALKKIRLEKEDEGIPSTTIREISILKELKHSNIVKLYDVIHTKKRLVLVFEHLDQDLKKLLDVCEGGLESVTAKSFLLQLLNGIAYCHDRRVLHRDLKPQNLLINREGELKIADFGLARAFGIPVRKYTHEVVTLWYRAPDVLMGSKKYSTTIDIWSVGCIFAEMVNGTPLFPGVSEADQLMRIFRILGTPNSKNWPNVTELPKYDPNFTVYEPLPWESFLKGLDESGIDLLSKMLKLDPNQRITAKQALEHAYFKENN
`Cc1c[nH]c2nccc(Oc3c(F)cc(Nc4cc(Cl)nc(N)n4)cc3F)c12` has a remaining binding of 91% (CDPK1; 0.1 µM).
With `CCCOc1ccc([C@H]2[C@H](C(=O)O)[C@@H](c3ccc4c(c3)OCO4)CN2CC(=O)Nc2c(CC)cccc2CC)cc1` the remaining binding was 87% (CRK2; 1 µM).
For `c1ccc(N2CCN(Cc3nc4ccccc4[nH]3)CC2)nc1`, the remaining binding was 99% (CDPK1; 1 µM).
The remaining binding of `O=C(N[C@H]1CCCCC/C=C\C2C[C@@]2(C(=O)O)NC(=O)[C@@H]2C[C@@H](Oc3ccncc3)CN2C1=O)OC1CCCC1` (stereo partly shown) is reported as 78% (CRK2; 1 µM).
